Assay results pooled from the literature.
Protocols differ between the studies behind these lines. Several values in a cell are separate wells, animals, samples, runs or records. Numbers after ± are the reported error.
EHMT2: Histone-lysine N-methyltransferase EHMT2 (EHMT2, Homo sapiens, UniProt Q96KQ7)
Sequence of UniProt Q96KQ7 (whole entry, looked up): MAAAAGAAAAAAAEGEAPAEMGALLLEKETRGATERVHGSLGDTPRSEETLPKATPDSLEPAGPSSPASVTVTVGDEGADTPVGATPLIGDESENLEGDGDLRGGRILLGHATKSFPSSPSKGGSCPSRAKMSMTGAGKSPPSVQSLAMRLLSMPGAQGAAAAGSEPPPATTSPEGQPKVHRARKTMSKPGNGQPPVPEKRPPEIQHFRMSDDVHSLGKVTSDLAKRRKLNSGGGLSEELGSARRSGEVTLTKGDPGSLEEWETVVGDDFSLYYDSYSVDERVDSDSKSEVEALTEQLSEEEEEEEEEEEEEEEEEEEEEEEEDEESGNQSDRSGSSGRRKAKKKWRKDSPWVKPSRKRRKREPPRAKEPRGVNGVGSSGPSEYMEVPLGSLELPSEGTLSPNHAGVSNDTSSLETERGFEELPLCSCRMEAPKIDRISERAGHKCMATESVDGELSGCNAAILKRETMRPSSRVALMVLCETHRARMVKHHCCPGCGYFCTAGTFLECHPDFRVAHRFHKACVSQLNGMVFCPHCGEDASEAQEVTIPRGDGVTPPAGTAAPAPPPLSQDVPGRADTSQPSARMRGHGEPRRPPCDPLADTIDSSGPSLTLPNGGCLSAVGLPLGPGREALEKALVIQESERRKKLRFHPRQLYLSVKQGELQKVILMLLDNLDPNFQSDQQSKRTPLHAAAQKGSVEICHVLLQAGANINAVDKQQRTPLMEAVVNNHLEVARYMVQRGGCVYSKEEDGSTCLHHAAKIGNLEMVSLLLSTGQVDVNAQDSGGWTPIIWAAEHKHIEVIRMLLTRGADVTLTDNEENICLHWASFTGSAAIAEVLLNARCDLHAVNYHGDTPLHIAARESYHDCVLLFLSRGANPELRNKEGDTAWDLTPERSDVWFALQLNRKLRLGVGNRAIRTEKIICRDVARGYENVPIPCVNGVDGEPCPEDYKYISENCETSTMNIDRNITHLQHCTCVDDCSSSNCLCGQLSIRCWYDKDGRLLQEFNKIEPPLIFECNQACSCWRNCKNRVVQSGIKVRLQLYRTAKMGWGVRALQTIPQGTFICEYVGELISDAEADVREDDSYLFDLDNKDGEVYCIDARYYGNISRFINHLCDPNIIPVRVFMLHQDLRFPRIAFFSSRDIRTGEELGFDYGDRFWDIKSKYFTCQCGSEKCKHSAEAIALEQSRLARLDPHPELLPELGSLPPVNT
Thymocyte selection-associated high mobility group box protein TOX with KAT7: Thymocyte selection-associated high mobility group box protein TOX, with KAT7 (Homo sapiens, UniProt O94900)
Sequence of UniProt O94900 (whole entry, looked up): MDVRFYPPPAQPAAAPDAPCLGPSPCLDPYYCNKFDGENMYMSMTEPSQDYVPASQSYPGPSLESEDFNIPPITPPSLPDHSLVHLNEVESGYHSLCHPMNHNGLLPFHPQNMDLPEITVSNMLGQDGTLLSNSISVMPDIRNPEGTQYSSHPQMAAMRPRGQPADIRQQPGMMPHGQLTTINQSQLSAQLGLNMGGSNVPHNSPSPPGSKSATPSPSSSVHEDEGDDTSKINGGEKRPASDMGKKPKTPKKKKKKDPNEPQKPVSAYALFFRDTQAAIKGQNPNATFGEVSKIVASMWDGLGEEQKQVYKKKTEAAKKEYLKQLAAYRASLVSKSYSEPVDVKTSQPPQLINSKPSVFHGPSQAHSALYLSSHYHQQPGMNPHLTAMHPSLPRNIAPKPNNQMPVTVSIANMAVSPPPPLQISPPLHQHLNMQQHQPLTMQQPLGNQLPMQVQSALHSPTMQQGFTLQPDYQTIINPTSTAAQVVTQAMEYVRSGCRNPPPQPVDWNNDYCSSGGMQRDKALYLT
BTK: Tyrosine-protein kinase BTK (BTK, Homo sapiens, UniProt Q06187)
Sequence of UniProt Q06187 (whole entry, looked up): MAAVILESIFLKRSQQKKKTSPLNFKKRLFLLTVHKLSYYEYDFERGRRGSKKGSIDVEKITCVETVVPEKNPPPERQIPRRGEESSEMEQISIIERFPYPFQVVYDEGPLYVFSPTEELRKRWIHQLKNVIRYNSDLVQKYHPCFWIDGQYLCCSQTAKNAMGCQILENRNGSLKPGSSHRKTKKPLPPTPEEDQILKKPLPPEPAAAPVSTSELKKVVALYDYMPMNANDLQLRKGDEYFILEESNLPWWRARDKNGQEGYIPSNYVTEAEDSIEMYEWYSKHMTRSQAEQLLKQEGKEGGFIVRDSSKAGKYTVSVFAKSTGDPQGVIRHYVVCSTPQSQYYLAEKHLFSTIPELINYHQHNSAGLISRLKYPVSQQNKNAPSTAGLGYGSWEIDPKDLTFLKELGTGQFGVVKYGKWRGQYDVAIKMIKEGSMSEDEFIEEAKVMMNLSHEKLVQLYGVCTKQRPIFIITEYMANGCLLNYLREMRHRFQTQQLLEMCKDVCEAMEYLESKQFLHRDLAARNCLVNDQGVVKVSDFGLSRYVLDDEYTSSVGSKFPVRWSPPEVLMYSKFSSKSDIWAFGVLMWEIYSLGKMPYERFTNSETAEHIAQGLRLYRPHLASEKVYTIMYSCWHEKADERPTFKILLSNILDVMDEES
CXCR4: C-X-C chemokine receptor type 4 (CXCR4, Homo sapiens, UniProt P61073)
Sequence of UniProt P61073 (whole entry, looked up): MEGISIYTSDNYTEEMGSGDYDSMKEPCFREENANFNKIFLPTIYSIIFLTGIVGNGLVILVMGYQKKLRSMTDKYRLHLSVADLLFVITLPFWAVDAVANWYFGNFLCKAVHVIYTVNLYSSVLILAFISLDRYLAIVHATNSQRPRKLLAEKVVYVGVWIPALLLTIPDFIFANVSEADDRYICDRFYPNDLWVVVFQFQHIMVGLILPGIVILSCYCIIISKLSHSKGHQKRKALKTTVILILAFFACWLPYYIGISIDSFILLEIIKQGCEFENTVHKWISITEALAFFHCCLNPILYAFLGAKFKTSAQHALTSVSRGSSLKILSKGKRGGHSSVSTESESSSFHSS
PSMB5: Proteasome Macropain subunit MB1 (PSMB5, Homo sapiens, UniProt P28074)
Sequence of UniProt P28074 (whole entry, looked up): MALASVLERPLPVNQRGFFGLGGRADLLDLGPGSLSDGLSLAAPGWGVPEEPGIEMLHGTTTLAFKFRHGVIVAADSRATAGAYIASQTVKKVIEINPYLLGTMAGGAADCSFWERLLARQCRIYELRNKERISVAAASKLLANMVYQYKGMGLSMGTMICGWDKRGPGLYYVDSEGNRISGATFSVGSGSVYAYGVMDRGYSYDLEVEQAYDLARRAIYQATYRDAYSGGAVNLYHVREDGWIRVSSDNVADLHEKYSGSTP
CA9: Carbonic anhydrase 9 (CA9, Homo sapiens, UniProt Q16790)
CELF1 del215-384: CUGBP Elav-like family member 1 (CELF1, Homo sapiens, UniProt Q92879, del215-384)
Sequence of UniProt Q92879 (whole entry, unmodified, looked up): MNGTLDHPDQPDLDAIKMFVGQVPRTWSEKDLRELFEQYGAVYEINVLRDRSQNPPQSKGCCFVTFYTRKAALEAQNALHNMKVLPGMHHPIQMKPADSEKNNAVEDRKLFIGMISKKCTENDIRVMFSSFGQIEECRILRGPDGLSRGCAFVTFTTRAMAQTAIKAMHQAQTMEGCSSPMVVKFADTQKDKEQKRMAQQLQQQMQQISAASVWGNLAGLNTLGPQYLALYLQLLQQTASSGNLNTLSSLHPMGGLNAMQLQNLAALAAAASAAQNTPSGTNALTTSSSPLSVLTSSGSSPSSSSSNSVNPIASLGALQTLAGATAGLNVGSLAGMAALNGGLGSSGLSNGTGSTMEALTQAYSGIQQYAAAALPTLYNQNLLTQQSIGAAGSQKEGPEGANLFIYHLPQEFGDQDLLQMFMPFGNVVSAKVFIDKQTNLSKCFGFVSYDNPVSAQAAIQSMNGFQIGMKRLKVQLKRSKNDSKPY
Methionyl-tRNA synthetase, putative: Methionyl-tRNA synthetase, putative (Trypanosoma brucei brucei, UniProt Q38C91)
CD274 with PD-1: Programmed cell death 1 ligand 1, with PD-1 (CD274, Homo sapiens, UniProt Q9NZQ7)
Sequence of UniProt Q9NZQ7 (whole entry, looked up): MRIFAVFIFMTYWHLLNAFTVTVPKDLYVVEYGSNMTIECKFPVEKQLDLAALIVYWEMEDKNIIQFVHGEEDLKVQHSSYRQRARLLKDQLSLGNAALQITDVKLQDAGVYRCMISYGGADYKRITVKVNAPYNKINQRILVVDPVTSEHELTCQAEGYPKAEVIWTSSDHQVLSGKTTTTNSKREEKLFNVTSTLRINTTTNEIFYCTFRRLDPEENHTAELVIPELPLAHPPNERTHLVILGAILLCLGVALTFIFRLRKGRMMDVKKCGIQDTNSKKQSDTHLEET
PTPN1: Tyrosine-protein phosphatase non-receptor type 1 (PTPN1, Homo sapiens, UniProt P18031)
Sequence of UniProt P18031 (whole entry, looked up): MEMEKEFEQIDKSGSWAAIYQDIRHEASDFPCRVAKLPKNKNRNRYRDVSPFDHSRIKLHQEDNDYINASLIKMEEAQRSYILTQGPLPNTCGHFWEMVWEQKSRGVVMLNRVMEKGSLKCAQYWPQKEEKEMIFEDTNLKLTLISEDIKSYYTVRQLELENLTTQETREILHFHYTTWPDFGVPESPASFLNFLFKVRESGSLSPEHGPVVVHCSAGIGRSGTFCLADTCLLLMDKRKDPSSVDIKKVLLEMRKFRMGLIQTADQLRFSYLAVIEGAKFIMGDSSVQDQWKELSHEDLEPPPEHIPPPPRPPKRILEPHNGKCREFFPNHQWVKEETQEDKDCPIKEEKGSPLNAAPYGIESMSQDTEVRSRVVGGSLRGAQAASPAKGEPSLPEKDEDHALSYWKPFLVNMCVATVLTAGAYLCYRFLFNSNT
Integrin alpha-5/beta-1: Integrin alpha-5/beta-1 (Homo sapiens, UniProt P05556+P08648)
Sequence of UniProt P05556 (whole entry, looked up): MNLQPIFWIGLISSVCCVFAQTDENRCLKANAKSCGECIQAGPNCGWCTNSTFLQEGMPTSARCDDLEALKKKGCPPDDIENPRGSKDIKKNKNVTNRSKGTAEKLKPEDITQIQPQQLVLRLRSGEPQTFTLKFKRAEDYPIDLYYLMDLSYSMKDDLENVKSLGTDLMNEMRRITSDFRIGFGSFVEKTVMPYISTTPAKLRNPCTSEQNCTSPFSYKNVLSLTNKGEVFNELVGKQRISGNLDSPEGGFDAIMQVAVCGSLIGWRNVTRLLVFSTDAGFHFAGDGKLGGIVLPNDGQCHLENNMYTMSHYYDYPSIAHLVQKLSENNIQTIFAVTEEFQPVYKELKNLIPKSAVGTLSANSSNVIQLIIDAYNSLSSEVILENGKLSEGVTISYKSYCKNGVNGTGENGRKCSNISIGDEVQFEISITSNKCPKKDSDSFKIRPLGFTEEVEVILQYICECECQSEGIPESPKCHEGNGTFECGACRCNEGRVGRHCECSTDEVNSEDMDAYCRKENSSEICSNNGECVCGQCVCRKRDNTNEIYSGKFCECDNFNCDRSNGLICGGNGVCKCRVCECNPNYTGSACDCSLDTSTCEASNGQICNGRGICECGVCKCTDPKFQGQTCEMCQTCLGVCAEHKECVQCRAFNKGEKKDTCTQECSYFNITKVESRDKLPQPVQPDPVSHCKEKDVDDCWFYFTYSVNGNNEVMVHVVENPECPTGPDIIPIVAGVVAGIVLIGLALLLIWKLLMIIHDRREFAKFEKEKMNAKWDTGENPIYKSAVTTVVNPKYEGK
F2: Prothrombin (F2, Homo sapiens, UniProt P00734)

Compound | target | assay | system | conditions | how to read | IC50
O=C1C(Cl)=C(NCCNCCO)C(=O)c2ccccc21 | EHMT2 | enzyme activity, inhibitor |  |  |  | 1.3 µM
N#Cc1c(N)nc2c(c1-c1ccc(CO)o1)Cc1cc(O)ccc1-2 | Thymocyte selection-associated high mobility group box protein TOX with KAT7 | TOX-KAT7 binding, inhibitor, ELISA |  |  | no inhibition at 10 µM | 0.51 µM
Cc1cc(C(=O)Nc2nc3cccc(C)c3n2[C@H]2CCCCN(C(=O)/C=C/CN(C)C)C2)ccn1 | BTK | enzyme activity, inhibitor, HTRF |  |  |  | 0.002 µM and 0.0025 µM
N=C(N)NCCC[C@@H]1NC(=O)[C@H](CCNC(=O)c2ccc(F)cc2)NC(=O)[C@@H](Cc2ccc(O)cc2)NC(=O)CNC(=O)[C@H](Cc2ccc3ccccc3c2)NC1=O | CXCR4 |  |  |  |  | 0.632 µM
CC(C)C[C@H](NC(=O)[C@H](Cc1ccc(CN)cc1)NC(=O)[C@H](Cc1ccccc1)N=[N+]=[N-])C(=O)N[C@@H](CC1CCC2CCCCC2C1)C(=O)[C@@]1(C)CO1 (stereo partly shown) | PSMB5 | competitive ABPP | Raji cell lysate |  |  | > 10 µM
CC(C)Oc1ccc(-c2cccc(C(C)N(C)C(=O)c3cc(S(N)(=O)=O)ccc3O)c2)cc1 (stereo not shown) | CA9 | enzyme activity, inhibitor |  |  |  | 0.00603 µM
Cn1c(-c2cccs2)n[nH]c1=S | CELF1 del215-384 | CELF1-RNA binding, inhibitor, fluorescence polarization |  | 20 nM CELF1, together with: 10 nM RNA |  | 0.55 ± 0.22 µM
Clc1cc(Cl)c2c(c1)[C@H](NCCCNc1nc3ncccc3[nH]1)CCN2 | Methionyl-tRNA synthetase, putative | enzyme activity, inhibitor |  |  |  | < 0.01 µM
Cc1c(COc2cc(OCc3cccc(C#N)c3)c(CNC(CO)(CO)CO)cc2Cl)cccc1-c1cccc(OCCCCCCC(=O)NO)c1 | CD274 with PD-1 | PD-1/PD-L1 binding, inhibitor, HTRF |  |  |  | 0.028 µM
NCC1CCN(c2nc(-c3ccncc3)nc3c(C#CCO)cccc23)CC1 | LATS1 (Homo sapiens, UniProt O95835) | enzyme activity, inhibitor, radiometric |  |  |  | 0.042 µM
CC(C)C[C@H](NC(=O)[C@H](Cc1ccc(CN)cc1)NC(=O)[C@H](Cc1ccccc1)N=[N+]=[N-])C(=O)N[C@@H](CCC1CCCCC1)C(=O)[C@@]1(C)CO1 | Proteasome subunit beta type-9 (Homo sapiens, UniProt P28065) | competitive ABPP | Raji cell lysate |  |  | > 10 µM
S=c1[nH]nc(-c2cccs2)n1-c1ccccc1 | CELF1 del215-384 | CELF1-RNA binding, inhibitor, fluorescence polarization |  | 20 nM CELF1, together with: 10 nM RNA |  | 0.46 ± 0.07 µM
N[C@@H](CCC(=O)N[C@@H](CS[Se]Cc1ccc(-c2cccc(C(O)c3ccc(Cl)c(Cl)c3)c2)cc1)C(=O)NCC(=O)O)C(=O)O (stereo partly shown) | PTPN1 | enzyme activity, inhibitor |  | together with: pNPP, GSH 1 mM |  | 40.9 µM
CC(C)C[C@H](NC(=O)[C@H](Cc1ccc(CN)cc1)NC(=O)[C@H](Cc1ccccc1)N=[N+]=[N-])C(=O)N[C@@H](CC1CCC(C2CCCCC2)CC1)C(=O)[C@@]1(C)CO1 (stereo partly shown) | PSMB5 | competitive ABPP | Raji cell lysate |  |  | 3.73 µM
CSCC[C@@H](N)C(=O)N[C@@H](CC(C)C)C(=O)N[C@@H](CCCNC(=N)N)C(=O)N[C@@H](Cc1c[nH]c2ccccc12)C(=O)N[C@@H](CO)C(=O)N[C@@H](CCCNC(=N)N)C(=O)N[C@@H](CCCCN)C(=O)N[C@@H](CCSC)C(=O)N1CCC[C@H]1C(=O)N[C@@H](CS)C(=O)N[C@H](C(=O)N[C@@H](CO)C(=O)O)C(C)C | CXCR4 | ligand displacement in cells |  |  |  | 0.312 µM
CCCCCCCCN(Cc1ccc(CNC(=O)OCCOC23CC4CC(C2)CC(C(N)C(=O)N2C(C#N)CC5CC52)(C4)C3)cc1)CC(O)C(O)C(O)C(O)CO (stereo not shown) | DPP4 (Homo sapiens, UniProt P27487) | enzyme activity, inhibitor |  | with preincubation |  | 0.018 µM
N=C(N)Nc1cccc(C(=O)NCC(=O)NC[C@H](NC(=O)c2c(Cl)cc(-c3ccc(Cl)c(F)c3)cc2Cl)C(=O)O)c1 | Integrin alpha-5/beta-1 | cell adhesion, inhibitor | SW480 | together with: fibronectin 0.3 µg/mL |  | 0.02 µM
Cc1nc2ccc(Br)cc2c(=O)n1N | Phospholipase A2, membrane associated (Homo sapiens, UniProt P14555) | enzyme activity, inhibitor, colorimetric |  |  |  | 22.1 ± 2.23 µM
OB1c2sccc2C=NN1Cc1ccccc1 | F2 | enzyme activity, inhibitor |  |  |  | > 100 µM
COCCN(C)C(C)C(=O)NC(Cc1ccc(-c2ccccc2)cc1)B(O)O (stereo not shown) | 20S proteasome beta subunits, part β2 subunit (Plasmodium falciparum, UniProt Q8I261+Q8I6T3) | β2 activity, inhibitor |  | together with: Ac-WLR-AMC |  | > 10 µM
CC(=S)NCCCC[C@H](NC(=O)OCc1ccccc1)C(=O)N[C@@H](Cc1c[nH]c2ccccc12)C(=O)NC(C)C | SIRT1 (Homo sapiens, UniProt Q96EB6) | enzyme activity, inhibitor |  |  |  | 1.4 µM
Cc1ccc2nc(C)n(/N=C/c3ccc(C(=O)O)cc3)c(=O)c2c1 | F2 | enzyme activity, inhibitor |  |  |  | 116 µM
CSCCCC/C(=N/OS(=O)(=O)O)S[C@@H]1O[C@H](CO)[C@@H](O)[C@H](O)[C@H]1O | PTPN1 | enzyme activity, inhibitor, absorbance |  |  |  | 6.07 µM

Compound | target | assay | system | conditions | how to read | IC50
N#Cc1c(N)nc2c(c1-c1ccc(CO)o1)Cc1c(O)cccc1-2 | Thymocyte selection-associated high mobility group box protein TOX with KAT7 | TOX-KAT7 binding, inhibitor, ELISA |  |  | no inhibition at 10 µM | > 10 µM
CNc1cccc(CCC(=O)NCC(=O)NC[C@H](NC(=O)c2c(Cl)cc(-c3ccccc3)cc2Cl)C(=O)O)n1 | Integrin alpha-5/beta-1 | cell adhesion, inhibitor | SW480 | together with: fibronectin 0.3 µg/mL |  | 2 µM
Cc1ccc(N=C2CC(=O)c3sc(C)nc3C2=O)cc1 | EHMT2 | enzyme activity, inhibitor |  |  |  | 3.1 µM
COc1cc2c(cc1OC)[C@@H]1Cc3ccc(OC)c(OC)c3CN1CC2 | HPGDS (Homo sapiens, UniProt O60760) | enzyme activity, inhibitor, fluorescence polarisation |  | 1 h, room temperature |  | 47.8 ± 1.1 µM
C#CCNC(=O)c1ccc(S(=O)(=O)N[C@@H](CCCCNC(C)=S)C(=O)N[C@@H](CCCNC(=N)N)C(=O)N[C@@H](CC2CCCCC2)C(N)=O)cc1 | SIRT3 (Homo sapiens, UniProt Q9NTG7) | enzyme activity, inhibitor, fluorescence |  |  |  | 0.91 µM
CO[C@@H]1[C@@H](OC(=O)c2ccc(C)[nH]2)[C@@H](O)[C@H](Oc2ccc3c(O)c(NC(=O)c4c[nH]c(C(=O)Nc5c(O)c6ccc(O[C@@H]7OC(C)(C)[C@H](OC)[C@@H](OC(=O)c8ccc(C)[nH]8)[C@H]7O)c(C)c6oc5=O)c4C)c(=O)oc3c2C)OC1(C)C | human CMG helicase | ATP hydrolysis, inhibitor, Transcreener ADP2 FP |  | together with: 0.5 mM ATP |  | ~85 µM
CC[C@H](C)[C@H](NC(=O)[C@H](CCCNC(=N)N)NC(=O)[C@@H]1CCCN1C(=O)[C@H](CC(C)C)NC(=O)[C@@H](N)CCCCN)C(=O)N[C@@H](CCCNC(=N)N)C(=O)N[C@@H](CC(C)C)C(=O)O | B1 bradykinin receptor (Rattus norvegicus, UniProt P97583) | ligand displacement, radioligand |  | cell membranes |  | 0.32 µM
CCOc1cc(CN2CCC3(CC2)CN(c2ccc(C(=O)O)cc2)C(=O)N3)c(C2CC2)cc1C | SSTR5 (Homo sapiens, UniProt P35346) | cAMP level, agonist, GloSensor | AD293 | together with: CST17 EC80 and forskolin |  | 0.00224 µM
COc1cc2c(cc1NS(=O)(=O)c1ccc(Br)cc1C)n(C)c(=O)n2C | Transcription initiation factor TFIID subunit 1, BD2 (TAF1, Homo sapiens, UniProt P21675) | inhibitor |  |  |  | 6.49 µM
S=C(NCCCN1CCN(CCCNC(=S)NCc2ccccc2)CC1)NCc1ccccc1 | CXCR4 | β-arrestin recruitment, antagonist |  |  |  | 20 µM
CC(=O)N[C@@H](Cc1ccc([N+](=O)[O-])cc1)C(=O)N[C@@H]1CSSC[C@@H](C(=O)N[C@H](Cc2ccc(O)cc2)C(N)=O)NC(=O)[C@H]([C@@H](C)O)NC(=O)[C@H](CCCCN)NC(=O)[C@@H](Cc2c[nH]c3ccccc23)NC(=O)[C@H](Cc2ccc(O)cc2)NC1=O | SSTR3 (Homo sapiens, UniProt P32745) | ligand displacement, radioligand |  |  |  | ~1 µM
Oc1cc(NCCCNCc2cc(Cl)cc(Cl)c2)nc2ccccc12 | Methionyl-tRNA synthetase, putative | enzyme activity, inhibitor |  |  |  | < 0.01 µM
CCn1nc(Cl)c2c1-c1cnc(N)c(c1)O[C@H](C)c1cc(F)ccc1-c1nn(C)cc1C2 | TEK (Homo sapiens, UniProt Q02763) | enzyme activity, inhibitor, radiometric |  |  |  | 0.46 µM
Nc1nc(OCc2ccc(CNC(=O)C(F)(F)F)cc2)c2nc[nH]c2n1 | PIN1 (Homo sapiens, UniProt Q13526) | DELFIA displacement |  | 6 h preincubation, 2 h incubation, together with: biotinylated D-peptide |  | > 100 µM
CCN(CC)CC(=O)Nc1cccc(-n2cc(-c3ccc4ccc(-c5cn(-c6cccc(NC(=O)CN(CC)CC)c6)nn5)cc4c3)nn2)c1 | BTK | enzyme activity, inhibitor |  |  |  | > 10 µM
Nc1nc2nc[nH]c2c(=S)[nH]1 | CELF1 del215-384 | CELF1-RNA binding, inhibitor, fluorescence polarization |  | CELF1 20 nM, together with: RNA 10 nM |  | 17.1 ± 4.3 µM
O=C(Nc1cccc(C(F)(F)F)c1)Nc1ccccc1O | SRPK3 (Homo sapiens, UniProt Q9UPE1) | enzyme activity, inhibitor, FRET |  |  |  | 5 µM
Cc1nn(-c2cccc(N)c2)c(=O)c2cnc(Nc3ccc(N4CCNCC4)cc3)nc12 | FLT1 (Homo sapiens, UniProt P17948) | enzyme activity, inhibitor |  |  |  | > 10 µM
Cc1nn(-c2ccc(S(N)(=O)=O)cc2)c(C)c1CCC(=O)Nc1cccc(-c2cn(C)nn2)c1 | CA9 | enzyme activity, inhibitor |  |  |  | 0.0269 µM
Cc1c(COc2cc(OCc3cccc(C#N)c3)c(CN3CCCC[C@@H]3C(=O)O)cc2Cl)cccc1-c1cccc(OCCCCCC(=O)NO)c1 | CD274 with PD-1 | PD-1/PD-L1 binding, inhibitor, HTRF |  |  |  | 0.0522 µM
Clc1cc(Cl)cc(CNCCCNc2nc3ccccc3[nH]2)c1 | Methionyl-tRNA synthetase, putative | enzyme activity, inhibitor |  |  |  | < 0.01 µM
Cn1ncc2cc(-c3cncc(Cl)c3N3CCC4(CCNC4=O)CC3)ccc21 | Cyclin-dependent kinase 19, with cyclin C (CDK19, Homo sapiens, UniProt Q9BWU1) | ligand displacement |  |  |  | 0.004 µM
Cc1c[nH]c2nccc(-c3ccc(C(=O)N[C@@H]4c5c(F)cc(C(F)F)cc5C[C@@H]4O)cn3)c12 | PRKX (Homo sapiens, UniProt P51817) | enzyme activity, inhibitor |  |  |  | 0.0068 µM

For quick reference, copied from above:
Compound | target | assay | system | conditions | how to read | IC50
CCCCCCCCN(Cc1ccc(CNC(=O)OCCOC23CC4CC(C2)CC(C(N)C(=O)N2C(C#N)CC5CC52)(C4)C3)cc1)CC(O)C(O)C(O)C(O)CO (stereo not shown) | DPP4 (Homo sapiens, UniProt P27487) | enzyme activity, inhibitor |  | with preincubation |  | 0.018 µM
N=C(N)Nc1cccc(C(=O)NCC(=O)NC[C@H](NC(=O)c2c(Cl)cc(-c3ccc(Cl)c(F)c3)cc2Cl)C(=O)O)c1 | Integrin alpha-5/beta-1 | cell adhesion, inhibitor | SW480 | together with: fibronectin 0.3 µg/mL |  | 0.02 µM
Cc1nc2ccc(Br)cc2c(=O)n1N | Phospholipase A2, membrane associated (Homo sapiens, UniProt P14555) | enzyme activity, inhibitor, colorimetric |  |  |  | 22.1 ± 2.23 µM
OB1c2sccc2C=NN1Cc1ccccc1 | F2 | enzyme activity, inhibitor |  |  |  | > 100 µM
COCCN(C)C(C)C(=O)NC(Cc1ccc(-c2ccccc2)cc1)B(O)O (stereo not shown) | 20S proteasome beta subunits, part β2 subunit (Plasmodium falciparum, UniProt Q8I261+Q8I6T3) | β2 activity, inhibitor |  | together with: Ac-WLR-AMC |  | > 10 µM
